Published values of several laboratories.
Every numbered part comes from another study and shows a few of its results, in no order. Changes are numbered by the printed parent chain.

Sample 1
Target: RNA binding protein fox-1 homolog 2, RRM domain, GST-SBP tag (RBFOX2, Homo sapiens, UniProt O43251-10, residues 100-194)
Method: RNA Bind-n-Seq
Form: RNA
Sample: in vitro
Concentration: 365 nM
Setting: natural RNA segment, single round, ends assumed
Relative to: no-protein control
Reading: higher = stronger binding
Constant ends, left off below: GGGAGUUCUACAGUCCGACGAUC … UGGAAUUCUCGGGUGCCAA
Target sequence (chain): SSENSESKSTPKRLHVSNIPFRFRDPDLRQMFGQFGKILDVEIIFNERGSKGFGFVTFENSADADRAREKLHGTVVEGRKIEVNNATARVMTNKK
Oligonucleotide	RBNS enrichment (R)
CUGGGCCCACUGGAUCCUCGACAGGAAGCCACCCUGCGUGGGGACUGCAGGCACACAAAAUAAAAUAACUCGUGCUCAUUUGGAAUGUAACUCCUGGCACAGUGUUCCUA	0.274
UUUAAUUCAUCCUCAGUGACUCUGGCAAGGCUGCUUCUCUAUCACUGGCUUUGCACAGAAGUAUGCUCUACUUGCGUUGCUUUAGGGCAGGAUUCUAUUUUGAGGGAAAA	0.518
ACUUUUACUUUAAGAAACAACAACAAAGAGAGAGAGAGACUCGAUUCCCAGCAAGUCAGUGUCUCACAAGGGCACUGGCUAAUUACUCUUCUGUCCGCGUUGCUGAUGUC	0.373
AGUCUUAAGGUGACUAAGAUUCACCUCAGCAGAGCCAAUCUUUUUGGGGGGAUGGGAGGGAGACUUAUAUUAGCAGGCUGCUCAUUGUACCACAGGAUACAUAUAGGUAG	0.476
CUGAGUGGUAUGGAUAACUGGGCAUCUCUAACCCAGGGCAAUCAGUAAGAACUAAUAACCUGUGUCUCCUAGACGAGUCAGGAUGGGAACUGACCUCUAGGAGAUUCUAG	0.766

Sample 2
Target: CCNA1, cyclin fold, Cln2 fusion (human)
Method: yeast growth competition, sequencing
Sample: yeast
Setting: weak parent motif
Relative to: not given
Reading: higher = stronger binding
Parent: INSM1 docking peptide (human); PKAIRKLHFEDEV
Substitution	normalised enrichment score
PKAIRKLHFMDEV [E10M]	0.245
PKAINKLHFEDEV [R5N]	-0.363
PWAIRKLHFEDEV [K2W]	-0.0843
PKAIRKLHFEEEV [D11E]	0.759
PKALRKLHFEDEV [I4L]	1.32
PKAIRKLHFFDEV [E10F]	0.253

Sample 3
Target: Interferon regulatory factor 7, full length, phosphomimetic (IRF7, Homo sapiens, UniProt Q92985, residues 1-503, S101K/S471D/S472D/S475D/S476D/S477D/S483D/S484D/S487D)
Method: protein-binding microarray
Form: double-stranded DNA, one strand shown
Sample: in vitro
Concentration: 250 nM
Setting: 60-bp whole probe
With: salmon DNA 0.4 mg/ml
Relative to: random background probes
Reading: higher = stronger binding
Constant ends, left off below: GCCTAGCAC … GTCTTGATTCGCTTGACGCTGCTG
Residues (chain): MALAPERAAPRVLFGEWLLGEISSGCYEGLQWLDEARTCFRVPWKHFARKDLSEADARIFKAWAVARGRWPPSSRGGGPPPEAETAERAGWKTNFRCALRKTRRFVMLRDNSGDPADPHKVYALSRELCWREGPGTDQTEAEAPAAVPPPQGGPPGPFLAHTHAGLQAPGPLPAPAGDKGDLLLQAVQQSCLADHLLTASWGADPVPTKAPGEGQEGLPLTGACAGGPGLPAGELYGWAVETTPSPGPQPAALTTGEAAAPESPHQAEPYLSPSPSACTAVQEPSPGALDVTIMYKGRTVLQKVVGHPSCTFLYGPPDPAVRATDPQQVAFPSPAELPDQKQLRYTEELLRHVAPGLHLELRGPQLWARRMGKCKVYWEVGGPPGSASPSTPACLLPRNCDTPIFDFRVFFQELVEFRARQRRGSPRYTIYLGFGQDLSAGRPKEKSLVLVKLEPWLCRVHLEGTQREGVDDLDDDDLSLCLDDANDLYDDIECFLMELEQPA
Oligonucleotide	log fluorescence
GACGGTATCGGACTGGGGCCGTGCTAG	-0.201 z-score
GACGGTTTCGATTCCGGGACGTGCTAG	12.6 z-score
TTGTTTCCATTTTCTGAATGCGTGCTA	7.71 z-score
GAGGGACTGGGGACTGGGGACGTGCTA	-0.572 z-score
GACGATATCATACTGGAGACGTGCTAG	-0.308 z-score
TTAGGACTGGACTTTCGGATAGTGCTA	-0.224 z-score

Single results of other studies
Substance	target	assay	test system	setting	scale	endpoint	value
PhoQ, residues 284 288 289 292 302 303 GASLAW	PhoP, residues 12 14 15 18 19 LWHVM (Escherichia coli, UniProt P23836)	Sort-seq, measured: YFP reporter	E. coli	PhoQ-PhoP variant library, with: 10 µM Mg2+	relative to: high Mg2+ state, higher = stronger signaling	fold induction	10.6

For quick reference, copied from above (sample 2):
Substitution	normalised enrichment score
PKAINKLHFEDEV [R5N]	-0.363
